Measurements of several laboratories.
Parts stem from different laboratories: compare values within a part only. Positions count from the first letter of the parent shown.

Sample 1
Target: HLA class I histocompatibility antigen, A alpha chain, allele A*25:01 (Homo sapiens, UniProt P04439)
Effect on: peptide-MHC binding
Form: peptide
Tested at: concentration not given
Endpoint: binding
TMNSRYYLV: inactive
YLAKLFLDH: inactive
AQSDFMSWV: inactive
FRYEFTAPF: inactive

Sample 2
Target: RNA binding protein fox-1 homolog 2, RRM domain, GST-SBP tag (RBFOX2, Homo sapiens, UniProt O43251-10, residues 100-194)
Method: RNA Bind-n-Seq
Form: RNA
Sample: in vitro
Tested at: 365 nM
Setting: natural RNA segment, single round, ends assumed
Reference: no-protein control
Reading: higher = stronger binding
Endpoint: RBNS enrichment (R)
All sequences stand within: GGGAGUUCUACAGUCCGACGAUC … UGGAAUUCUCGGGUGCCAA
Construct (chain): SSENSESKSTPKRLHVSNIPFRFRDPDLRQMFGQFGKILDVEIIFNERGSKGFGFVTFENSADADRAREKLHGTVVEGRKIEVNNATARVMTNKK
GUAAUAUUCAGUAAUAAAUGUCAUCAGGUGAUGACUGGAUGAGCUGCUGAAGACAUUCGUAUUAUGUGUUAGAUGCUUUAAUGUUUGCAAAAUCUGUCUUGUGAAUGGAC: 5.15
UUAAAGUGCUACUUGAAAGCACAGGCUAGACAGAAAGCACAAGGAACCUAGGGGGUUGAUACAAUGUUACUGUAAUUGUGUGGGUGGGUGUCAUCCUUUGUGACAUUGUU: 0.826
AAGCCCCUCCUGCCAGUCCCUGUCCCCUUUCAGCCCACCAGUCCCUCUCUGCUGCCGGUGAUGGGAGGCCUUUCUAGACCUGGCUCUUUCUCUCCCGUCUCAGUGGCUUC: 0.432
UUAAAAUCAACUUUAUAACUAAUUCAUACUAUAAGACAGAUAAUAGCUAAAGUUUUGGAAUAAUUUAUAUUAAAAGCCGCAAGUCUUAAAAAUCCCUGGAUAUGACAUAA: 0.433
CUUGUGCUAUGCACGGGGUGUCUGAGCGGUGCCCAGGCCGUUCCACACAGACACCUCAGUGUUGGACCUGUGAUGAAAGUUUCUGAGAAAUACUUUUGUUCCAAACCAUU: 0.325
CAGUUCUCUCUGAUUUGGUUUGUUCUGUCUCAGGCUUCUGUGGCAGGACUGGCCCAGGGAGGAGGAAGCCAGCAGCACACCUGGGGAAUGGGGUCCCGGCCGGGAGGCUU: 0.496
CAGGAGCCAAAUUUGUAAUUUAGAGACACUUAAUUUUGUUAAUCCUGUCUGGGACACUUAAGUAACAUCUAAAGCAUUAUUGCUUUAGAAUGUUCAAAUAAAAUUUCCUG: 0.436
AUUGUUACCUCCUGUUGUUUUGUUACUGAGUAAGAUAACUUUGUUGAAUAAAGACCUUUAUCCCCAAGGUCUCUGUCUAUUUCCUGGGUGUCAUGGUCUGGGGCUAGACU: 0.717

Sample 3
Target: PABPC1L2, full length, GST fusion (mouse, UniProt A0ABA7IW68)
Method: RNAcompete
Form: RNA
Sample: in vitro
Tested at: 20 nM
Setting: 7-mer, probes averaged, single round
Reference: mean of 7-mers
Reading: higher = stronger binding
Endpoint: 7-mer Z-score
Construct (chain): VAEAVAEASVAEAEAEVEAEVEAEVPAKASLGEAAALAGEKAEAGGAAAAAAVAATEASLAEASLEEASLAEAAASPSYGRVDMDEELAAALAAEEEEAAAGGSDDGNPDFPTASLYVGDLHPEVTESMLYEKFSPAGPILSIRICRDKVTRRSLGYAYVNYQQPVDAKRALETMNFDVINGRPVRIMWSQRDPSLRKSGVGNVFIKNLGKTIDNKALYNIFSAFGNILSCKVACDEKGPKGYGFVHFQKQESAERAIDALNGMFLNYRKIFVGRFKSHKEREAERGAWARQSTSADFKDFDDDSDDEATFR
GCAUCCU: -0.271
AACAGCU: 0.459
AGGGACA: 0.428
UGUACGC: -0.206
UCAGACA: 0.0116
GGGAGAC: 0.122
GUUUGGU: -0.429
ACCUACA: -0.0681

Sample 4
Target: Eukaryotic initiation factor 4A-I (EIF4A1, Homo sapiens, UniProt P60842, residues 1-406, full length assumed)
Chain of UniProt P60842 (whole entry, looked up): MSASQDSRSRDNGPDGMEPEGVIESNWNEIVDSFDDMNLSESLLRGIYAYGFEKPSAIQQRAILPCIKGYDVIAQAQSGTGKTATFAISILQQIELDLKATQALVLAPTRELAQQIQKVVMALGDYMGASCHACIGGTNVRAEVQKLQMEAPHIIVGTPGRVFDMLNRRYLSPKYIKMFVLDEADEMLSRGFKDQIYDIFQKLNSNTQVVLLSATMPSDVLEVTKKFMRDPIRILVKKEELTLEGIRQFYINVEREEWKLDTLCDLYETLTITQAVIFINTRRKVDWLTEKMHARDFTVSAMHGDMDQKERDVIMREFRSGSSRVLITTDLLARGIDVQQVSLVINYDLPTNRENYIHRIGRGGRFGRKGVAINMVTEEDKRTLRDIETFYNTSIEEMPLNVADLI
Method: RNA Bind-n-Seq
Form: RNA
Sample: in vitro
Tested at: 90 pmol
Setting: 4-mer, random 30-nt RNA, single round
Together with: 3 µM DMDA-PatA, 2 mM ADP, 2 mM phosphate
Reference: input library
Reading: higher = stronger binding
Endpoint: 4-mer enrichment
AAGC: 1.09 fold
AGGG: 1.25 fold
AUCG: 0.658 fold
GCAU: 0.825 fold
GAAU: 1.14 fold
GAAG: 1.23 fold
ACUA: 0.665 fold
CUGU: 0.719 fold

Sample 5
Target: CCNB1, cyclin fold, Cln2 fusion (human)
Method: yeast growth competition, sequencing
Sample: yeast
Setting: strong parent motif
Reference: not given
Reading: higher = stronger binding
Endpoint: normalised enrichment score
Parent: viral docking peptide; TSVRRALFTGGSD; partner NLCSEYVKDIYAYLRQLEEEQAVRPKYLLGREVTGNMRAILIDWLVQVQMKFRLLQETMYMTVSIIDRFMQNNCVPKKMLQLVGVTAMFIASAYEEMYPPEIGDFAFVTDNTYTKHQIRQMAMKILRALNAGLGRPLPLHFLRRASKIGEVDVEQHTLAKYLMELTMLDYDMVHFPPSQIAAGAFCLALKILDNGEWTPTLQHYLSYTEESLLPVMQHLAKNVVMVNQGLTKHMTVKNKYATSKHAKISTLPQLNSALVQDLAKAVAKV
TSVRRALFTGASD [G11A]: 2.13
TSTRRALFTGGSD [V3T]: 0.553
TAVRRALFTGGSD [S2A]: 1.29
TSVPRALFTGGSD [R4P]: 0.373
TSVRRALFTMGSD [G10M]: 1.25
TSVRFALFTGGSD [R5F]: -0.0867
TSVRRILFTGGSD [A6I]: 1.28
TPVRRALFTGGSD [S2P]: 1.83
TSVRRALFTGGTD [S12T]: 1.99
TSVRRALFTGRSD [G11R]: 0.906
TQVRRALFTGGSD [S2Q]: 1.82
TSVRRALFVGGSD [T9V]: 2.5
TSVRRALNTGGSD [F8N]: 0.24
TSVRRCLFTGGSD [A6C]: 2.17
TSVRKALLTGGSD [R5K F8L]: 0.542
TSVRRALFTYGSD [G10Y]: 1.53
TSVRRWLFTGGSD [A6W]: -0.102
TSVRRALKTGGSD [F8K]: 0.00261
TSVRRALGTGGSD [F8G]: 0.148
TDVRRALFTGGSD [S2D]: 2.45
TSVMRALFTGGSD [R4M]: 1.12
TKVRRALFTGGSD [S2K]: 1.35
TSVRRAVFTGGSD [L7V]: 0.635
TCVRRALFTGGSD [S2C]: 2.05
TSVRGALFTGGSD [R5G]: 0.26

For quick reference, copied from above (sample 5):
TSVRRILFTGGSD [A6I]: 1.28
TPVRRALFTGGSD [S2P]: 1.83
TSVRRALFTGGTD [S12T]: 1.99
TSVRRALFTGRSD [G11R]: 0.906
TQVRRALFTGGSD [S2Q]: 1.82
TSVRRALFVGGSD [T9V]: 2.5
TSVRRALNTGGSD [F8N]: 0.24
